Measurements gathered from unrelated publications.
Compare with care: the assays were run in different laboratories.
Target: STE20/SPS1-related proline-alanine-rich protein kinase (STK39, Homo sapiens, UniProt Q9UEW8)

| Compound | test | system | setting | how to read | quantity | result |
| --- | --- | --- | --- | --- | --- | --- |
| C=CC(=O)N1CCc2ccc(-n3c(=O)ccc4cnc5ccc(-c6cnn(C)c6)cc5c43)cc21 | KINOMEscan | – | 1 µM | reference: DMSO control | remaining binding | 100% |
| Nc1ncc(-c2cc(-c3cnn(CC(F)(F)F)c3)ncc2F)nc1C(=O)NC1CNCC(F)C1 (centres unmarked) | enzyme activity | – | 1 µM | reference: DMSO control | remaining activity | 81.6% |
| COc1c(Cl)cccc1Nc1c(-c2ccncc2C#C[C@@]2(C)CCCN2C(=O)/C=C/CN(C)C)[nH]c2c1C(=O)NCC2 | binding, competition with immobilised ligand | – | 3 µM | – | remaining binding | 72% |
| CCN1CCN(Cc2ccc(C(=O)Nc3ccc(C)c(NCc4cnc5[nH]ccc5c4OC)c3)cc2C(F)(F)F)CC1 | binding, competition with immobilised ligand | – | 1 µM | – | remaining binding | 56% |
| CC(C)=CC1OC(C)(C)C2C=C3C(=O)C(Cl)=CC(O)C3C3C(O)C4OC4C(=O)C132 (centres unmarked) | cell-free assay, competition with immobilised ligand | – | 10 µM | – | remaining binding | 70% |
| NC(=O)[C@@H](O)C[C@H]1CCc2sc3ncnc(O[C@H]4CC[C@H](N5CCOCC5)CC4)c3c21 | enzyme activity, inhibitor | – | 10 µM | – | inhibition | 11% |
| CN1CCN(Cc2ccc(-c3ccc(CO[C@H]4CCC[C@@H]4NC(=O)c4cc(-c5cnn(C)c5)cnc4N)cc3)cc2)CC1 | enzyme activity, inhibitor | – | 0.1 µM | – | inhibition | -10% |
| C=CC(=O)N1CCCC(n2c(=O)c3ncccc3n(Cc3ccc(Oc4ccccc4)cc3)c2=O)C1 (centres unmarked) | cell-free assay, competition with immobilised ligand | – | 1 µM | – | remaining binding | 81% |
| Cc1ccc(-c2c(/C=C(\C#N)C(=O)NC(C)C)n(CCCO)c3ncnc(N)c23)cc1 | cell-free assay, competition with immobilised ligand | – | 1 µM | – | remaining binding | 97% |
| CNC1C[S+]2CC[S+]3CC[S+](C1)[Ru-4]321([N]=C=S)[n]2c3ccc(OC)cc3c3c4c(c5cc(F)c[n+]1c5c32)C(=O)NC4=O (centres unmarked) | KinomeScan | – | 0.1 µM | reference: untreated | remaining binding | 98% |
| COc1cc(Nc2nccc(-c3cnn4nc(OC)ccc34)n2)cc(C(F)(F)F)c1 | binding, competition with immobilised ligand | – | 1 µM | – | remaining binding | 100% |
| Cc1cnc2nc1Nc1cccc(c1)COC/C=C/COCc1cc(ccc1OCCN1CCOCC1)N2 | binding, competition with immobilised ligand | – | 0.1 µM | – | remaining binding | 77% |
| COc1cc(Nc2nc(C)cc(-c3cnn4nc(OC)ccc34)n2)cc(C(F)(F)F)c1 | binding, competition with immobilised ligand | – | 1 µM | – | remaining binding | 64% |
| NC(=O)C[C@H]1CCc2sc3ncnc(O[C@H]4CC[C@H](N5CCOCC5)CC4)c3c21 | enzyme activity, inhibitor | – | 10 µM | – | inhibition | 4% |
| C=CC(=O)Nc1cc(-c2nn(C3CCN(CCNC(=O)[C@H](C)CCC45CC6CC(CC(C6)C4)C5)CC3)c3ncnc(N)c23)ccc1Oc1ccccc1 | inhibitor, KiNativ profiling | biochemical | 2 µM | – | inhibition | 29.2% |
| CNC(=O)C1CCN(c2cc(C)c(F)cc2NC(=O)c2ccc(-c3cc(O)ccc3C)c(C)c2)CC1 | binding, competition with immobilised ligand | – | 1 µM | – | remaining binding | 100% |
| Nc1ncc2c(n1)-c1c([nH]c3ccc(C4=CCOCC4)cc13)CCC2 | binding, competition with immobilised ligand | – | 1 µM | – | remaining binding | 100% |
| C#CCCCCNC(=O)c1ccc(N(C(=O)C=C)c2ccc(Br)cc2)cc1 | mass spectrometry profiling | H460 cell lysate | 100 µM over 10 µM, UniProt Q9UEW8 | reference: high over low concentration | reactivity ratio | 1.85 |
| C=CC(=O)N1Cc2nc(-c3cc(-c4cc(Cl)cnc4Cl)c(F)cc3F)n(-c3ccncn3)c2C1 | cell-free assay, inhibitor | – | 1 µM | – | inhibition | 2% |
| O=C(Cc1ccc(OCc2ccccc2)cc1)NC1(C(=O)O)CCN(C(=O)c2ccc(-c3cccc(Cl)c3)cc2)CC1 | enzyme activity, inhibitor | – | 10 µM | – | activity vs control | 118% |
